Measurements collected from several papers.
Every numbered part comes from another study and shows a few of its results, in no order.
Chain of UniProt Q04759 (whole entry, looked up): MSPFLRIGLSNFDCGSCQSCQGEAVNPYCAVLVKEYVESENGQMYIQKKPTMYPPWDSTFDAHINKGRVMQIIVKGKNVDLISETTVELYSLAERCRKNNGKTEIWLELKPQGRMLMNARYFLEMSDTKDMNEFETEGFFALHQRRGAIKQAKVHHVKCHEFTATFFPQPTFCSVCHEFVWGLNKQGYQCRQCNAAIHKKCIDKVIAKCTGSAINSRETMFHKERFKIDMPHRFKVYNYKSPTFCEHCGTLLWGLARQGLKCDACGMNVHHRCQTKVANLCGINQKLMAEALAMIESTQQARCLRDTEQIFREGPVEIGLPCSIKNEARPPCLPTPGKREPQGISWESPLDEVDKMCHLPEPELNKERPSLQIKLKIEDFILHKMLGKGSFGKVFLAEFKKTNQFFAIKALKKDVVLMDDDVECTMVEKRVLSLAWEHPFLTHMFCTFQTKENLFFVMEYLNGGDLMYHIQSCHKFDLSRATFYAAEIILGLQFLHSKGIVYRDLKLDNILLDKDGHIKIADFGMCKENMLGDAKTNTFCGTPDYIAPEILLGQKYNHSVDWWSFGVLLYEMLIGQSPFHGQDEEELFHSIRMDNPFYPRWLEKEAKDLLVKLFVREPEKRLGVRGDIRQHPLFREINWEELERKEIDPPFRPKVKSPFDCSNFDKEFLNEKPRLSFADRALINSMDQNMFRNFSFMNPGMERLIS
Chain of UniProt P10721 (whole entry, unmodified, looked up): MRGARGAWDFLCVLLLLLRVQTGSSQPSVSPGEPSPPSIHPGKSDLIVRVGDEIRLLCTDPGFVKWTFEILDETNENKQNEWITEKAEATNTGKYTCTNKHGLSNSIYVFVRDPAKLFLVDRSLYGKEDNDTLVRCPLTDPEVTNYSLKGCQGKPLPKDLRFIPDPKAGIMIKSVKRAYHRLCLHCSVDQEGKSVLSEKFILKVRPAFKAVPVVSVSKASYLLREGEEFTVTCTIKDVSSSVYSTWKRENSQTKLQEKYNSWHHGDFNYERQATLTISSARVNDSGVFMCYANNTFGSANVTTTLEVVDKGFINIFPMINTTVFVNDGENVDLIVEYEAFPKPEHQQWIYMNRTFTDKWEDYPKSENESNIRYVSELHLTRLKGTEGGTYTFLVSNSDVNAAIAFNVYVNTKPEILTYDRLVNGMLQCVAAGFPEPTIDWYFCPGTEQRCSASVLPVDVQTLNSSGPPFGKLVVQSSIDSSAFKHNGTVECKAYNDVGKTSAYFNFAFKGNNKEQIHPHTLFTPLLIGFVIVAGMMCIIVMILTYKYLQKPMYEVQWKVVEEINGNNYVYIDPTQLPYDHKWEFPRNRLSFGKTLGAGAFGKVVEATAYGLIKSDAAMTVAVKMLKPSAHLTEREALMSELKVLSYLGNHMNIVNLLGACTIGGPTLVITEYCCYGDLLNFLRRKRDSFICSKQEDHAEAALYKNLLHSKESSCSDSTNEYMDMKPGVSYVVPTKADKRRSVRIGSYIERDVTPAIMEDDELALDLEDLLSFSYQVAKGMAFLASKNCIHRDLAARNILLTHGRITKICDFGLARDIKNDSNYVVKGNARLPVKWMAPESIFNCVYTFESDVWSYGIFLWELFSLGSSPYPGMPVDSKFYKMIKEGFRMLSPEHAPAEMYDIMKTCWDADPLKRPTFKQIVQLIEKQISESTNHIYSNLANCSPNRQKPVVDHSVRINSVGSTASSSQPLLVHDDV
Chain of UniProt Q9UJ42 (whole entry, looked up): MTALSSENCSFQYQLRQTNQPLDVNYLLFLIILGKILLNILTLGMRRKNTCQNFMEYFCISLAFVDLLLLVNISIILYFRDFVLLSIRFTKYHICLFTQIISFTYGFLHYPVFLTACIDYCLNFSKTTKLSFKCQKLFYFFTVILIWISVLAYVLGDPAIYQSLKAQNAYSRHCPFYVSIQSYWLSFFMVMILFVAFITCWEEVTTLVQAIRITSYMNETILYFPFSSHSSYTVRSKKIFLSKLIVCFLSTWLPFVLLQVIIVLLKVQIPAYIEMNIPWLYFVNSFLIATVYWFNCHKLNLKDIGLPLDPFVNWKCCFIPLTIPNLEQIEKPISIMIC
Chain of UniProt Q13555 (whole entry, looked up): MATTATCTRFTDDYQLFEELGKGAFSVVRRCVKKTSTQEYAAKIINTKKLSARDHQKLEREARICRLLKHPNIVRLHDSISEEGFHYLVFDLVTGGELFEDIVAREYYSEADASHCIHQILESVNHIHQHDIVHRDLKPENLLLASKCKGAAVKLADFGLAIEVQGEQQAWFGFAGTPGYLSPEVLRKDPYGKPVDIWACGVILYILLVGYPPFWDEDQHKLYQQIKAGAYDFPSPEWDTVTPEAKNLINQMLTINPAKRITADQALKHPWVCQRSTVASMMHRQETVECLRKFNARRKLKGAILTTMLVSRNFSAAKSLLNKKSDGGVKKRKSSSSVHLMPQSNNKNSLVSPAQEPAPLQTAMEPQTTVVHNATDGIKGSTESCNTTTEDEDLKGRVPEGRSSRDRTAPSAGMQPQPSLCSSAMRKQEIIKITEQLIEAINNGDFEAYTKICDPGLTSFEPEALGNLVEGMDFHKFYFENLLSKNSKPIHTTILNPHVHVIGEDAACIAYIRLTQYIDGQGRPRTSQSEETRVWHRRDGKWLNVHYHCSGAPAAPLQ
Chain of UniProt P09769 (whole entry, looked up): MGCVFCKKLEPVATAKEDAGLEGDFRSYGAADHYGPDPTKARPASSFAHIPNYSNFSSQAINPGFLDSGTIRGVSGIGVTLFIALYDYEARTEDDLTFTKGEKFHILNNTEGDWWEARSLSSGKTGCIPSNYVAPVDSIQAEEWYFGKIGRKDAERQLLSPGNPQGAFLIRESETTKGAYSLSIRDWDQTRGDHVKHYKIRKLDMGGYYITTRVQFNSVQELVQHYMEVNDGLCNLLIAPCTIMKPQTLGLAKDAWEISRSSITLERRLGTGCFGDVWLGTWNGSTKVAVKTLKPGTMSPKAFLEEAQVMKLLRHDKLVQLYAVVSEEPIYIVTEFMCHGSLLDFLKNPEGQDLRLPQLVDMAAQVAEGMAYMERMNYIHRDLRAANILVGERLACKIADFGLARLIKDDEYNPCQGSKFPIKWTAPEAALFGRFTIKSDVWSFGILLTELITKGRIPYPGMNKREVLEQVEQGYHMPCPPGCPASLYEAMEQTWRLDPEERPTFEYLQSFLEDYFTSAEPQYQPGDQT
Chain of UniProt O14920 (whole entry, looked up): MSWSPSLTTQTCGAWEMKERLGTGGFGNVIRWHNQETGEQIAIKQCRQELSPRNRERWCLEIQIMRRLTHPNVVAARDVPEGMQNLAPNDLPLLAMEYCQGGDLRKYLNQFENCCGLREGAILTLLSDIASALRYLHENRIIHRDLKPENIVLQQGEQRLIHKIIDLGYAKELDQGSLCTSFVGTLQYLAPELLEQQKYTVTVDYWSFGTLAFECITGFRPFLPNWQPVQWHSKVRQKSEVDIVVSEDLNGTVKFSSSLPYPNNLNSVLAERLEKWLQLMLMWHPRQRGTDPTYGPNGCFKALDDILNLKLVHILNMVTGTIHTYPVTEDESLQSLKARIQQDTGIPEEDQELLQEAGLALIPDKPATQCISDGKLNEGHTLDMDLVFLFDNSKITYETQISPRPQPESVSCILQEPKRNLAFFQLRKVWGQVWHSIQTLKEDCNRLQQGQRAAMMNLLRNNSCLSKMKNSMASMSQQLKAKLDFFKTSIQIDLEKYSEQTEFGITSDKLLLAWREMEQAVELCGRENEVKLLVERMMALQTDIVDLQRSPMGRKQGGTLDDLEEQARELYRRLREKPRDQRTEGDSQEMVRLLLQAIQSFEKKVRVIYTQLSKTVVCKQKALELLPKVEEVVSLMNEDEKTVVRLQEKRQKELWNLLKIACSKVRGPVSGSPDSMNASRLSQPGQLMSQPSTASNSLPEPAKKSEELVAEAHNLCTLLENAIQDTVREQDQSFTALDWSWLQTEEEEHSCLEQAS
Chain of UniProt P48730 (whole entry, looked up): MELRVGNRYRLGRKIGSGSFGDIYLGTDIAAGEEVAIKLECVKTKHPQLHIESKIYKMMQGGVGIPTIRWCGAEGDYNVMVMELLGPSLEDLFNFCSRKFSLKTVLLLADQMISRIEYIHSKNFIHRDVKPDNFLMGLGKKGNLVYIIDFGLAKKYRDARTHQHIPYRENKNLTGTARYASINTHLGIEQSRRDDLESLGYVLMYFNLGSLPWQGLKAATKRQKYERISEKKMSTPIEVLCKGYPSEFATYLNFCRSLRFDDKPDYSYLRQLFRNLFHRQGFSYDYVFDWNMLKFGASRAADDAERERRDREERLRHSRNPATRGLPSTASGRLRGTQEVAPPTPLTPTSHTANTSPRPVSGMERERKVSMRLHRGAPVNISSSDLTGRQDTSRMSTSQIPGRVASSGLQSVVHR

Block 1 — observed: kinase activity; mode: inhibitor; method: ADP-Glo; time: 1 h
Structure (SMILES): CC(C)S(=O)(=O)c1ccc2nccc(Nc3ccc4sc(C5CCCC5)nc4c3)c2c1
Target: Receptor-interacting serine/threonine-protein kinase 3 (RIPK3, Homo sapiens, UniProt Q9Y572)
Chain of UniProt Q9Y572 (whole entry, looked up): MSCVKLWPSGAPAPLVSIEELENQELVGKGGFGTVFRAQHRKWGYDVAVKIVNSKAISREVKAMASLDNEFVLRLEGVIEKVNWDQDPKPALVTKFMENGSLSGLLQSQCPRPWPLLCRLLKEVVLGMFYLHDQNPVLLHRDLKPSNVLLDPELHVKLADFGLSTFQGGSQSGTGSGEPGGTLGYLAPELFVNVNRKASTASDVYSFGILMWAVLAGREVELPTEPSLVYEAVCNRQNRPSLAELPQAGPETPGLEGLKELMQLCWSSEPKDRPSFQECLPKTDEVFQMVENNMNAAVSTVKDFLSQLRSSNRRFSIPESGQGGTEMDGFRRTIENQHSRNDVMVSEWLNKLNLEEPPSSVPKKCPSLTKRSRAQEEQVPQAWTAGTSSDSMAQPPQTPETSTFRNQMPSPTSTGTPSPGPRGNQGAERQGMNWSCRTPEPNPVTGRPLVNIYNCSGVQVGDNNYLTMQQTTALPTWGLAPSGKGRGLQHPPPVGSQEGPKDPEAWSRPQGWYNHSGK
100 nM — inhibition: 98.5%.
It gave 57.6% for inhibition (3.704 nM).
The inhibition was 82.4% (11.11 nM).
0.412 nM — inhibition: 38.5%.
For 0.137 nM: inhibition read 18.1%.

Block 2 — method: competition with immobilised ligand; tested at: 1 µM
SMILES: N#Cc1ccc(Nc2ccc3[nH]c(=O)[nH]c3c2)c(Cl)c1
It gave 100% for remaining binding (Receptor-type tyrosine-protein kinase FLT3 (FLT3, Homo sapiens, UniProt P36888, F691L/ITD); cell-free assay).
For Serine/threonine-protein kinase DCLK1 (DCLK1, Homo sapiens, UniProt O15075); cell-free assay: remaining binding read 84%.
Mast/stem cell growth factor receptor Kit (KIT, Homo sapiens, UniProt P10721, V559D); cell-free assay — remaining binding: 100%.
For Rhodopsin kinase GRK1 (GRK1, Homo sapiens, UniProt Q15835); cell-free assay: remaining binding read 100%.
For Phosphatidylinositol 4,5-bisphosphate 3-kinase catalytic subunit alpha isoform (PIK3CA, Homo sapiens, UniProt P42336, M1043I); cell-free assay: remaining binding read 100%.
It gave 95% for remaining binding (Insulin receptor (INSR, Homo sapiens, UniProt P06213); cell-free assay).
Serine/threonine-protein kinase PLK4 (PLK4, Homo sapiens, UniProt O00444); cell-free assay — remaining binding: 87%.
The remaining binding was 96% (Leucine-rich repeat serine/threonine-protein kinase 2 (LRRK2, Homo sapiens, UniProt Q5S007); cell-free assay).
It gave 100% for remaining binding (Transient receptor potential cation channel subfamily M member 6 (TRPM6, Homo sapiens, UniProt Q9BX84); cell-free assay).
Mast/stem cell growth factor receptor Kit, autoinhibited (KIT, Homo sapiens, UniProt P10721); cell-free assay — remaining binding: 100%.
The remaining binding was 78% (Calcium/calmodulin-dependent protein kinase type II subunit gamma (CAMK2G, Homo sapiens, UniProt Q13555); cell-free assay).
For Ribosomal protein S6 kinase alpha-6, N-terminal kinase domain (RPS6KA6, Homo sapiens, UniProt Q9UK32); cell-free assay: remaining binding read 84%.
Tyrosine-protein kinase Fgr (FGR, Homo sapiens, UniProt P09769); cell-free assay — remaining binding: 100%.
It gave 100% for remaining binding (Homeodomain-interacting protein kinase 4 (HIPK4, Homo sapiens, UniProt Q8NE63); cell-free assay).
For Tyrosine-protein kinase ABL1, non-phosphorylated (ABL1, Homo sapiens, UniProt P00519, F317I); binding: remaining binding read 92%.
The remaining binding was 93% (eIF-2-alpha kinase GCN2, C-terminal kinase domain (EIF2AK4, Homo sapiens, UniProt Q9P2K8, S808G); cell-free assay).
Atypical kinase COQ8A, mitochondrial (COQ8A, Homo sapiens, UniProt Q8NI60); cell-free assay — remaining binding: 100%.
For Cyclin-dependent kinase 18 (CDK18, Homo sapiens, UniProt Q07002); cell-free assay: remaining binding read 100%.
For Protein kinase C theta type (PRKCQ, Homo sapiens, UniProt Q04759); cell-free assay: remaining binding read 90%.
Ephrin type-A receptor 4 (EPHA4, Homo sapiens, UniProt P54764); cell-free assay — remaining binding: 100%.
It gave 100% for remaining binding (Cyclin-dependent kinase-like 5 (CDKL5, Homo sapiens, UniProt O76039); binding).
The remaining binding was 100% (STE20-like serine/threonine-protein kinase (SLK, Homo sapiens, UniProt Q9H2G2); cell-free assay).
The remaining binding was 89% (Inhibitor of nuclear factor kappa-B kinase subunit beta (IKBKB, Homo sapiens, UniProt O14920); cell-free assay).
Serine/threonine-protein kinase 32B (STK32B, Homo sapiens, UniProt Q9NY57); cell-free assay — remaining binding: 92%.
For Protein kinase C epsilon type (PRKCE, Homo sapiens, UniProt Q02156); cell-free assay: remaining binding read 100%.

Block 3 — Structure (SMILES): O=C1c2ccccc2-c2nc3nnnn3nc21; observed: enzyme activity; mode: inhibitor; tested at: 0.5 µM; reference: control
Serine/threonine-protein kinase PAK 1 (PAK1, Homo sapiens, UniProt Q13153) — remaining activity: 96.1%.
For Vascular endothelial growth factor receptor 1 (FLT1, Homo sapiens, UniProt P17948): remaining activity read 3.06%.
The remaining activity was 107% (Muscle, skeletal receptor tyrosine-protein kinase (MUSK, Homo sapiens, UniProt O15146)).
It gave 106% for remaining activity (Serine/threonine-protein kinase SIK2 (SIK2, Homo sapiens, UniProt Q9H0K1)).
Calcium/calmodulin-dependent protein kinase type 1 (CAMK1, Homo sapiens, UniProt Q14012) — remaining activity: 68.7%.
The remaining activity was 79.4% (Dual specificity protein kinase CLK1 (CLK1, Homo sapiens, UniProt P49759)).
It gave 100% for remaining activity (Ephrin type-A receptor 2 (EPHA2, Homo sapiens, UniProt P29317)).
It gave 99.1% for remaining activity (Protein kinase C zeta type (PRKCZ, Homo sapiens, UniProt Q05513)).
For Insulin-like growth factor 1 receptor (IGF1R, Homo sapiens, UniProt P08069): remaining activity read 91.1%.
The remaining activity was 75.1% (Ribosomal protein S6 kinase alpha-3 (RPS6KA3, Homo sapiens, UniProt P51812)).
For Dual specificity protein kinase CLK2 (CLK2, Homo sapiens, UniProt P49760): remaining activity read 92.1%.
The remaining activity was 69.8% (Mitogen-activated protein kinase kinase kinase 20 (MAP3K20, Homo sapiens, UniProt Q9NYL2)).
For Ephrin type-A receptor 6 (EPHA6, Homo sapiens, UniProt Q9UF33): remaining activity read 106%.
For Tyrosine-protein kinase JAK1 (JAK1, Homo sapiens, UniProt P23458): remaining activity read 101%.
For Casein kinase I isoform epsilon (CSNK1E, Homo sapiens, UniProt P49674): remaining activity read 80.6%.
Casein kinase I isoform delta (CSNK1D, Homo sapiens, UniProt P48730) — remaining activity: 86.8%.
It gave 109% for remaining activity (SRSF protein kinase 1 (SRPK1, Homo sapiens, UniProt Q96SB4)).
It gave 33.3% for remaining activity (Tyrosine-protein kinase receptor TYRO3 (TYRO3, Homo sapiens, UniProt Q06418)).
The remaining activity was 2.44% (Tyrosine-protein kinase Tec (TEC, Homo sapiens, UniProt P42680)).
Protein kinase C theta type (PRKCQ, Homo sapiens, UniProt Q04759) — remaining activity: 83%.
For Cyclin-dependent kinase 2, with cyclin E (CDK2, Homo sapiens, UniProt P24941): remaining activity read 80.6%.
The remaining activity was 75.1% (Serine/threonine-protein kinase Sgk2 (SGK2, Homo sapiens, UniProt Q9HBY8)).

Block 4 — Compound: NC(N)=NC(=O)c1nc(Cl)c(N2CCCCCC2)nc1N; observed: β-arrestin recruitment; mode: agonist; method: PRESTO-Tango; tested at: 10 µM; reference: untreated
Probable G-protein coupled receptor 160 (GPR160, Homo sapiens, UniProt Q9UJ42) — “fold over basal”: 0.85.
It gave 0.91 for “fold over basal” (G-protein coupled receptor 12 (GPR12, Homo sapiens, UniProt P47775)).
The “fold over basal” was 1.21 fold (Metabotropic glutamate receptor 1 (GRM1, Homo sapiens, UniProt Q13255)).
For Platelet-activating factor receptor (PTAFR, Homo sapiens, UniProt P25105): “fold over basal” read 1.1.
For P2Y purinoceptor 11 (P2RY11, Homo sapiens, UniProt Q96G91): “fold over basal” read 0.85.
Gastrin/cholecystokinin type B receptor (CCKBR, Homo sapiens, UniProt P32239) — “fold over basal”: 1.21.
Trace amine-associated receptor 9 (TAAR9, Homo sapiens, UniProt Q96RI9) — “fold over basal”: 0.57 fold.
The “fold over basal” was 1.37 (C-C chemokine receptor type 3 (CCR3, Homo sapiens, UniProt P51677)).
It gave 1.04 for “fold over basal” (Calcitonin receptor, isoform b (CALCR, Homo sapiens, UniProt P30988)).
For Neuropeptides B/W receptor type 1 (NPBWR1, Homo sapiens, UniProt P48145): “fold over basal” read 1.06.
GPRC5C (Homo sapiens, UniProt Q9NQ84) — “fold over basal”: 1.23.
The “fold over basal” was 5.77 (Delta-type opioid receptor (OPRD1, Homo sapiens, UniProt P41143)).
For ADGRG6 (Homo sapiens, UniProt Q86SQ4): “fold over basal” read 1.97.
